# Measured values pooled from the literature.
# Each numbered part is a random draw from the data of one study; scales do not carry over between parts. Substitutions count along the parent as printed.
# UniProt Q9UKS7, sequence (whole entry, looked up): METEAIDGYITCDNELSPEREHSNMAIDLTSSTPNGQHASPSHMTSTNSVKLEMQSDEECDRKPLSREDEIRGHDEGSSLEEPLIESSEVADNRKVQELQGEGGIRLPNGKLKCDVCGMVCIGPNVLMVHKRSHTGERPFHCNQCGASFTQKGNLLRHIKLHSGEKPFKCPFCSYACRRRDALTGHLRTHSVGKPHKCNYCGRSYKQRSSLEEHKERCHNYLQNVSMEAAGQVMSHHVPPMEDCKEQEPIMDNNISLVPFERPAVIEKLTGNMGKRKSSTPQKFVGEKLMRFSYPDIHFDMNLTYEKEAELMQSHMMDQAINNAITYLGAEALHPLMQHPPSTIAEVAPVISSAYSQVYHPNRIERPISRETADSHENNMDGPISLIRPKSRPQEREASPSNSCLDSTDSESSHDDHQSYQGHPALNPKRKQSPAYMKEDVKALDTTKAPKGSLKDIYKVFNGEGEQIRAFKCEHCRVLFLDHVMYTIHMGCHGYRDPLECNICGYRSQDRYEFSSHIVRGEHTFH
# UniProt Q96SW2, sequence (whole entry, looked up): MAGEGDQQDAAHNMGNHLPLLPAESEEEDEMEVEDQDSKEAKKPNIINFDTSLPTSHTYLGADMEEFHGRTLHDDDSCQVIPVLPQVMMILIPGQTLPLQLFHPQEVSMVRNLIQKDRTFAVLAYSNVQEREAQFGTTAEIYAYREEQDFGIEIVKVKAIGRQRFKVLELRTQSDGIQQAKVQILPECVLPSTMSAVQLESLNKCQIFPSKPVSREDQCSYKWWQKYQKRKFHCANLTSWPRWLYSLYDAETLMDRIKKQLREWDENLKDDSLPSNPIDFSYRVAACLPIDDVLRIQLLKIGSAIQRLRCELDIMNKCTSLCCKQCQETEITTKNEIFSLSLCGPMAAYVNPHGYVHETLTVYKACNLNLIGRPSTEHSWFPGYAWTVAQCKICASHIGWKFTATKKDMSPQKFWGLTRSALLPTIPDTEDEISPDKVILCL

# Sample 1
# Target: CCND3, cyclin fold, Cln2 fusion (human)
# Method: yeast growth competition, sequencing
# Medium: yeast
# Setting: weak parent motif
# Relative to: not given
# Direction: higher = stronger binding
# Starting sequence: viral docking peptide; KKVKRRLFETREL; partner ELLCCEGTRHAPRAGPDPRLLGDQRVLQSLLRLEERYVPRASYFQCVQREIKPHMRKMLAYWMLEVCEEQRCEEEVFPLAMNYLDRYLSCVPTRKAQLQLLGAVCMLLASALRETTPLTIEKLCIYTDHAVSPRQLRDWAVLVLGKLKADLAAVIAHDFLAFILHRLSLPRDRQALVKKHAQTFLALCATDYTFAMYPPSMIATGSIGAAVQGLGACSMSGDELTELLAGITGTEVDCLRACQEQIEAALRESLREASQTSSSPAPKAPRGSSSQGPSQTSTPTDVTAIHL
Change,normalised enrichment score
R5A L7A,0.0257
R5K F8L,0.625
L13A,0.0772
R11A,0.126
E12A,0.225
F8L,0.166
K4A,0.0511
F8A,0.0938
T10A,0.19
V3A,0.143

# Sample 2
# Target: Histone acetyltransferase KAT6A, both winged helices, GST fusion (KAT6A, Homo sapiens, UniProt Q92794, residues 1-181)
# Method: protein binding microarray
# Molecule type: double-stranded DNA, one strand shown
# Medium: in vitro
# Tested at: not given
# Setting: 8-mer, flanks averaged, mean of 2 arrays, mostly near background
# Relative to: not given
# Direction: higher = stronger binding
# Construct (chain): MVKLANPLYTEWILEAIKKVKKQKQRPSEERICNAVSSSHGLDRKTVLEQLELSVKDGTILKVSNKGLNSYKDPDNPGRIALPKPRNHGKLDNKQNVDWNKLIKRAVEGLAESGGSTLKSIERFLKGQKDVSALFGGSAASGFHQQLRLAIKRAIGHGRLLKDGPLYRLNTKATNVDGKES
Strand,E-score
GATATGAC,0.00822
CGCTTGAC,0.302
GGGTACCC,0.0645
ATATTCGC,0.0282
GAACCCTA,-0.0376
GGTTTAAC,0.0249
CTTACTTA,-0.0878
ACTGAGGA,-0.0907

# Other studies, line by line
Structure (SMILES),target or system,assay,test system,setting,scale,measurement,value
O=C1CCC(N2Cc3c(ccc4c3OCC43CCN(Cc4ccccc4)C3)C2=O)C(=O)N1 (centres unmarked),"CRBN/Zinc finger protein Helios (Homo sapiens, UniProt Q96SW2+Q9UKS7)","degrader, HiBiT",HEK293,123.5 nM,,protein remaining,77%
CN1CCN(C(=O)O[C@H]2c3nccnc3C(=O)N2c2ccc(Cl)cn2)CC1,Sarcocystis neurona,parasite growth,,"10 µM, 96 h, first screen",relative to: untreated,log2 fold change,0.18

# A few entries again (sample 2):
Strand,E-score
GGGTACCC,0.0645
ATATTCGC,0.0282
GAACCCTA,-0.0376
